Measured values pooled from the literature.
Each numbered part is a random draw from the data of one study; scales do not carry over between parts.

Block 1
Target: RNA binding protein fox-1 homolog 2, RRM domain, GST-SBP tag (RBFOX2, Homo sapiens, UniProt O43251-10, residues 100-194)
Technique: RNA Bind-n-Seq
Molecule type: RNA
Sample: in vitro
Tested at: 365 nM
Setting: natural RNA segment, single round, ends assumed
Relative to: no-protein control
Reading: higher = stronger binding
Shared flanks, not repeated: GGGAGUUCUACAGUCCGACGAUC … UGGAAUUCUCGGGUGCCAA
Target sequence (chain): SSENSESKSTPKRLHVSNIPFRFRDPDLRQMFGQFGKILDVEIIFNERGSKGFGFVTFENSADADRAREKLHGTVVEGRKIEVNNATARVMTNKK
Sequence | RBNS enrichment (R)
CGAGAAAGAGAAGGAUGUUGUGCCGGAAGGACCCGUGCAGGAAGCUGAAACUGAGCAUCUUGCACAGGGCUCCGAGACUGUACAGGCUACCCCAGAGAGCCUUGAAGUUC | 0.287
CCUGACUUCACUCAUUUGCUUUCUUUUCCUUGGAACCCUGCCUAAUAACUUCUGUGGGAGCUCAUCCCCCAAUCUUCGGUACUCUGCUUCCACAGUUGGAAAGUGGAACU | 0.696
GGAACUACAUCAGCGCCCACACUGGACCACAGACGGAGGCAGAUGAGGGCUCCAAGGCCGGAAGUCCUCCCUUCCUCCCUGUCUGCUCUCAUGCUCUCCGCCCUGUUCUA | 0.265
UGUGUACCCACUCCUCACUGCCCCACCAGCCACCUCUUGGGCAUGCUCAGCCCUUCCUAGAAGAGUCAGGAAGGGAAAGCCAGAAGGGGCACGCCUGCCCAGCCUCGCAU | 1.29
AUGGGAAAUUGAAGCAGGAAAUAUUGAGGGCUUCUUGAUCACAGAAAACUCAGAAGAGAUAGUAAUGCUCAGGACAGGAGCGGCAGCCCCAGAACAGGCCACUCAUUUAG | 0.563
AGGUACUGCCCAUUGGGAGAUGGGGACAUUGGGACCUCAGCAAUGAAGAACCCUUGUGAAGUAACCAGGAGGAAUGGGGAAAGAAGCAAGUUGGGCAGGAUAUGGCCUAC | 0.818
UCUUCAAGAUUUAGAGUGGGUUAACCAGGUCAUUACAUCUUAAUUUAAUAACAAGCAUUACUGUAGAGUGAUUGUGUAUAGAUCUGUUAGCUGUCAGGGUGUGUUUUUUU | 1
UAUGCGGUCUGAAUGCAUGCAUUCAUGAGUCCAUGUGGCCAAGUCAGCCUGUGUGCUACUGAACUGUCGAAGGAAAUAGCCGCUCUGAUAGGUAGAUGUGAGUAAAAAGA | 0.924

Block 2
Target: RING finger protein unkempt homolog, zinc fingers 1-6, GST-SBP tag (UNK, Homo sapiens, UniProt Q9C0B0, residues 30-357)
UniProt Q9C0B0, sequence (30-357, looked up): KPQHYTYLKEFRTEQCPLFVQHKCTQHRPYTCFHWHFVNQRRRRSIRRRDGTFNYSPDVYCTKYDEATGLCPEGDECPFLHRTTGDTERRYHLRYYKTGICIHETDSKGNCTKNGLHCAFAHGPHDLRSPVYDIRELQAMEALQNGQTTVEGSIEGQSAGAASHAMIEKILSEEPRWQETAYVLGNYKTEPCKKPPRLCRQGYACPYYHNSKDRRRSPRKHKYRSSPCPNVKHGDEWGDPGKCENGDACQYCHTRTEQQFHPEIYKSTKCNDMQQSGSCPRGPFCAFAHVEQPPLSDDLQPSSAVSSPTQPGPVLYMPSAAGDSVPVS
Technique: RNA Bind-n-Seq
Molecule type: RNA
Sample: in vitro
Tested at: not given
Setting: RNA with constant flanks, human-mouse chimeric sites, ends assumed
Relative to: input RNA pool
Reading: higher = stronger binding
Shared flanks, not repeated: GGGAGUUCUACAGUCCGACGAUC … CAACAGAGGAUUGAGCAUCA
Sequence | bound/input enrichment
AACUUCGUGCAUCGGUUUCCCUUUGUAGCUGUUUCAAUUGGCUUCCUUGUAAAUAAAGAGAUGGAGUUUGGAGUUGUGUACAGCUGUGUGGAAGAUAAGAUGUACACCGGCAGGAAAGGG | 0.45 ratio
CAGCCUCAGAGCCCAGACUUCCUGGAUAUUACCAACCCUAAAGCGGUAUUAGAAAAUGCAUUGAGAAACUUCGCCUGUCUGACCACCGGAGAUGUGAUUGCCAUCAACUACAAUGAGAAG | 0.427 ratio
AUGGAACAUUUUGAUGCGUCACUCAGUACCUAUUUCAAGGCCUUCCUGGGCCCCCGAGAUACAAGAGUCAAAGGAUGGUUCCUCCUGGACAAUUACAUCCCUACGUUUGUCUGUUCUGUU | 0.142 ratio
GGAAGUACAAUGAUGGAAAUAGAUGGCGACAAAGGCAAACAAGGCGGGCCCACCUACUACAUAGACACCAAUGCCCUCCGCGUGCCCAGGGAGAACAUGGAGGCCAUCUCACCACUCAAG | 0.252 ratio
ACAGUUAUAUUGUUGAGUUUCAUUUUCAUAUAUUCUUGUAGUGUCUGCUUGCCUGUGUCUUUUAGUAAAAUAAGACUAGCCUUUGAAAAUAUUUUAGCAUGGUAUUUAACAUUUUCUAAA | 10.4 ratio
GAGCGUCUUGCCCGCACCGGGAUCAUAGUGACCACUAGUGAGGCUGUCCUCCUACAGCUGGUGGCUGACAAAGACCACCCGAAGUUCAAGGAAAUUCAGAAUCUAAUUAAGGCGAGUGCC | 0.115 ratio
GCCACCAGAUCCCAGAAACAUGACCCUUGCUGCCUACAAAGAGAAGAUGAAGGAGCUCCCGCUGGUGUCCUUGUUCUGCUCCUGCUUCUUGUCUGAUCCCCUGAAUAAGUCGUCCUACAA | 0.306 ratio
UUGAAAACUGAUUCAAGUAAGUUUGAGUAUCACAAUGUUAGCUUUCUAAUUCCAUAAAGAUAGUUUUUACAGUUUCUUUAUAAUCUGACAUCACCCCAGCGCCAUUUGUAAAGAGCAACU | 3.22 ratio

Block 3
Target: Sal-like protein 4, full length isoform A (SALL4, Homo sapiens, UniProt Q9UJQ4, residues 1-1053)
UniProt Q9UJQ4, sequence (whole entry, looked up): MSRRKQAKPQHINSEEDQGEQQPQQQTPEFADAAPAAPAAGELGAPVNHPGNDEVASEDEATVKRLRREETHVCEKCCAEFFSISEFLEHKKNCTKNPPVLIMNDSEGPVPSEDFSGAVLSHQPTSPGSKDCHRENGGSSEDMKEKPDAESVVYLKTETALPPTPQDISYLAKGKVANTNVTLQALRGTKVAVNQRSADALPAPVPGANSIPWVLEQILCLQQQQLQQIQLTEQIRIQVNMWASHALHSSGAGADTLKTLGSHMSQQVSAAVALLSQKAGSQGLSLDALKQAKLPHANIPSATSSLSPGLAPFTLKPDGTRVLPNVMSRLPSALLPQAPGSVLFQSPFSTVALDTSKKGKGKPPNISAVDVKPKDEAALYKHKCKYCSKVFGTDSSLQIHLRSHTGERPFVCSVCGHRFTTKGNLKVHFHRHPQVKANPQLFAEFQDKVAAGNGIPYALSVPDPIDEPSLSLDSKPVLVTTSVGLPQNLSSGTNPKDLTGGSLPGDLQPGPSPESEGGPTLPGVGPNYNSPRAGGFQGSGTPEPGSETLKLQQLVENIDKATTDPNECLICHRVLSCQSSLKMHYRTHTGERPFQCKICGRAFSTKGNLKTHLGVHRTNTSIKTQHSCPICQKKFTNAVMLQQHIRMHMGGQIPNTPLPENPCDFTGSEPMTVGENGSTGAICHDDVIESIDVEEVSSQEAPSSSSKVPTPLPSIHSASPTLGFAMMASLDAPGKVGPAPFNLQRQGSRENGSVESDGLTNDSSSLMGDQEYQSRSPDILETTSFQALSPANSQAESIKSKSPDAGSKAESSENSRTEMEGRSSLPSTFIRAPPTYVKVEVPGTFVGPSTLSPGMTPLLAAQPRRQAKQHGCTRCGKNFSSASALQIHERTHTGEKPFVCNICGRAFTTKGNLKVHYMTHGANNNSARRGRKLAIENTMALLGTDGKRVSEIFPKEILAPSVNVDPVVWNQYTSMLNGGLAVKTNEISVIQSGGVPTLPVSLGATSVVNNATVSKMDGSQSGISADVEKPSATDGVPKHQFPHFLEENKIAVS
Technique: universal PBM
Molecule type: double-stranded DNA, one strand shown
Sample: in vitro
Tested at: 600 nM
Setting: 8-mer, flanks averaged, mean of replicates
Reading: higher = stronger binding
Sequence | E-score
CTCTTTTC | 0.0333
GAAGCACA | 0.0481
AGGAGAAT | 0.0301
AGAGAGAG | -0.163
CCCCATGA | -0.0735
AAGGTATT | 0.181
ATCGATTA | 0.175
GACGCTAC | -0.107
AGGCTGCC | -0.32
CAAAACGA | 0.169
GACACCAC | -0.286
AGGGCACG | -0.267
GAGATCGA | 0.0293
CTCACGTA | -0.171
ATACTCGC | -0.0079
CTCCGGGA | -0.342
CTTAAACC | -0.0597
ACCCGGTA | -0.184
CTCCACTA | -0.0794
ACTTTTTG | 0.114
CCCAGGGA | -0.351

Block 4
Target: Interferon regulatory factor 7, full length, phosphomimetic (IRF7, Homo sapiens, UniProt Q92985, residues 1-503, S471D/S472D/S475D/S476D/S477D/S483D/S484D/S487D)
UniProt Q92985, sequence (whole entry, unmodified, looked up): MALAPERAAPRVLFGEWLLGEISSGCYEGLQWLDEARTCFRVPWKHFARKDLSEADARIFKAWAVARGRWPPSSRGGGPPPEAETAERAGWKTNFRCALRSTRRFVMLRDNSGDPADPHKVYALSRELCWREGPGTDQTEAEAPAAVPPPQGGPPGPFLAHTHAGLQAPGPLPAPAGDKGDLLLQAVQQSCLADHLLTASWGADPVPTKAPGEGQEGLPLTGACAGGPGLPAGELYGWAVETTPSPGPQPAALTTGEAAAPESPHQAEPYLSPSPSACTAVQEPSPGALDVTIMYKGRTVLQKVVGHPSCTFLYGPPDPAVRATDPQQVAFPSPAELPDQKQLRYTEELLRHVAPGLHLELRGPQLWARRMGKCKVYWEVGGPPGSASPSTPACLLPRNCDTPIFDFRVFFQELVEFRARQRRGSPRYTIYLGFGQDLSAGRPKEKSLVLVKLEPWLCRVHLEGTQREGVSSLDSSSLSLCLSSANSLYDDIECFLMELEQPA
Technique: protein-binding microarray
Molecule type: double-stranded DNA, one strand shown
Sample: in vitro
Tested at: 2200 nM top
Setting: 60-bp whole probe
Together with: salmon DNA 0.4 mg/ml
Relative to: random background probes
Reading: higher = stronger binding
Shared flanks, not repeated: GCCTAGCAC … GTCTTGATTCGCTTGACGCTGCTG
Sequence | fitted relative affinity [z-score]
TTAGAGCTCAGTCTCGATTAGTGCTAG | -0.227
TTAGATCTCAGGCTGGATTAGTGCTAG | -0.2
TTAGGTTTGGACTTTCGGTTAGTGCTA | 5.66
GACGAACTGAGTATCGCGACGTGCTAG | -0.133
GACGGTTTCCTTATCCTGATGTGCTAG | 2.74
ACTGATTTCCACTTTCTTAAGTGCTAG | 3.12
GACGAGTTCGGGACTGGAGACGTGCTA | -0.312
TCACCCCTCTAGGTTCTCACTGTGCTA | 0.656
TTAGATTTCAGTTTCGAATAGTGCTAG | 4.02
GGCGGTATCGGGACTGGGGACGTGCTA | -1.19
GACGGTTTCGGTTTCGGTACGTGCTAG | 15.4
GACAGTATCGGTTTCGGGACGTGCTAG | 4.74
CACGGTTTCGGTTTCGGGACGTGCTAG | 15.4
TTAGATCTCAGACTGGAGTAGTGCTAG | -0.39
TCCTTTTAATTTTTAACGAGGTGCTAG | 1.03
GACGGACTGGGGTTTGGGGACGTGCTA | -0.62
GACGACCTGGGGACTGGAGACGTGCTA | -0.548
TTCCCTCTGCTCCTCTTTTTGTGCTAG | 3.01
TCATTTTATGCTTTCTTACTGTGCTAG | 2.8

Repeated from above (block 3):
Sequence | E-score
GACACCAC | -0.286
AGGGCACG | -0.267
GAGATCGA | 0.0293
CTCACGTA | -0.171
ATACTCGC | -0.0079
CTCCGGGA | -0.342
CTTAAACC | -0.0597
ACCCGGTA | -0.184
